Measured values of several laboratories.
Numbers after ± are the reported error.

CNCc1cc(-c2ccccc2F)n(S(=O)(=O)c2cccnc2)c1
inhibition (aspirin-induced gastric lesions; rat; oral, 2 mg/kg, 4 h; baseline: vehicle): 59.2%

CN[C@@H]1COc2c(S(=O)(=O)NC(=O)Nc3c4c(cc5c3CCC5)CCC4)cnn2C1
inhibition (item: IL-1β; human participants, whole blood ex vivo; 900 mg twice daily, multiple doses, 152 h, together with: LPS/ATP; baseline: baseline): 99.8%

CSCCNc1nc(SCCC(F)(F)F)nc2c1ncn2[C@@H]1O[C@H](COP(=O)(O)OP(=O)(O)C(Cl)(Cl)P(=O)(O)O)[C@@H](O)[C@H]1O
inhibition (platelet aggregation, light transmission aggregometry; human patients, platelet-rich plasma; dose not given, 2 h, together with: TRAP 15 µM): 20.2 ± 21.1%

CCCCC1C(=O)N(c2ccccc2)N(c2ccccc2)C1=O
inhibition (carrageenan paw oedema; albino rat; oral, 50 mg/kg, 3 h; baseline: vehicle): 44.6%

CCN(O)N=Nc1ccc(S(=O)(=O)Nc2cc(C)on2)cc1
inhibition (paw oedema; rat, carrageenan oedema; oral, 100 mg/kg, 4 h after carrageenan; baseline: vehicle): 88.8%

O=C1O[C@H]([C@@H](O)CO)C(O)=C1O
inhibition (superoxide scavenging; 120 µM): 55.6%

CC[C@@H]1[C@H](F)C(=O)N[C@@H]1COc1nccc2cc(C(N)=O)c(OC)cc12
inhibition (ATP-site probe binding, ActivX profiling, item: PCTAIRE2, PCTAIRE3; THP-1 cell lysate; 0.04 mM, Lys1 site): 1.7%

NCC(=O)Nc1cncc(-c2nn3c(=O)cc(N4CCNCC4)nc3s2)c1
inhibition (ADP-induced platelet aggregation, light transmission aggregometry; human, stable CAD on aspirin, ex vivo platelets; subcutaneous, 0.05 mg/kg, 120 min post-dose, mean value, together with: ADP 20 µM): 14.5%

Oc1ccc(Br)cc1C=NCCN1CCOCC1
inhibition (superoxide scavenging; 80 µM): 12.2%
